Values quoted from earlier work as cited in several papers.
Each line is one published result; not all experiments were run side by side. Numbers after ± are the reported error.

`N[C@@H](CN[C@@H](CN[C@@H](CC(=O)O)C(=O)O)C(=O)O)C(=O)O` has an LD50 of greater than 150 mg/kg (mouse; intravenous).
The half-life of `CNC1C(O)C(NC)C2OC3(O)C(OC(C)C[C@H]3NC(=O)Cc3cc(Cl)ccn3)OC2C1O.Cl.Cl` (stereo partly shown) is reported as 156 min (human liver microsomes).
The TD50 of `COC[C@@H](NC(C)=O)C(=O)NCc1ccc(OCc2cccc(F)c2)cc1` is reported as greater than 500 mg/kg (behavioural toxicity; rat; oral).
The LD50 of `CC[C@@H]1CN2CCc3c([nH]c4cccc(OC)c34)[C@@H]2C[C@@H]1/C(=C\OC)C(=O)OC` is reported as greater than 400 mg/kg (mouse; oral).
Under tolerability, `CC/C=C\C/C=C\C/C=C\C/C=C\CC/C=C/CSCC(=O)C(F)(F)F` is recorded as “not toxic” (human, plaque psoriasis; topical, up to 5%).
For `O=C(N[C@@H](Cc1coc2ccccc12)B(O)O)[C@@H]1C[C@H]2CC[C@@H]1O2`, tolerability read “not toxic” (rat; oral, 10 mg/kg once daily, repeated dosing).
`COc1cccc(-c2cccc(OC)n2)n1.[Ru+2].c1cnc2c(c1)ccc1cccnc12.c1cnc2c(c1)ccc1cccnc12` gave a log D of -1.3 (octanol/water; pH 7.4).
For `CCN1CCCC1CNC(=O)c1cc(Br)cc(OC)c1O[11CH3]` (stereo not shown), the VND was 2.9 mL/cm³ (human).
For `CN[C@H](CC(C)C)C(=O)N[C@H]1C(=O)N[C@@H](CC(N)=O)C(=O)N[C@H]2C(=O)N[C@H]3C(=O)N[C@H](C(=O)N[C@H](C(=O)O)c4cc(O)cc(O)c4-c4cc3ccc4O)[C@H](O)c3ccc(c(Cl)c3)Oc3cc2cc(c3O[C@@H]2O[C@H](CO)[C@@H](O)[C@H](O)[C@H]2O[C@H]2C[C@](C)(NCc3ccc(-c4ccc(Cl)cc4)cc3)[C@H](O)[C@H](C)O2)Oc2ccc(cc2Cl)[C@H]1O`, “volume of distribution” read 1.28 L/kg (mouse, plasma; intravenous, 10 mg/kg).
The logP of `COc1ccc(C2=[N+]([O-])c3ccccc3N3CCCN=C23)cc1` is reported as -0.128 (octanol/PBS).
`OC1C=Cc2c(cc3ccc4cccc5c6ccccc6c2c3c45)C1O` (stereo not shown) gave a Km of 25.9 µM (human liver microsomes; glucuronidation).
With `CSCC[C@H](NC(=O)CNC(=O)CNC(=O)[C@H](CO)NC(=O)[C@H](CC(C)C)NC(=O)[C@@H]1CCCN1C(=O)[C@H](CO)NC(=O)[C@H](CC(N)=O)NC(=O)[C@H](CC(C)C)NC(=O)[C@H](C)NC(=O)[C@@H](NC(=O)[C@H](CC(C)C)NC(=O)[C@H](Cc1c[nH]cn1)NC(=O)[C@H](CC(C)C)NC(=O)[C@@H](NC(=O)[C@@H]1CCCN1C(=O)[C@H](CCC(N)=O)NC(=O)[C@H](Cc1ccccc1)NC(=O)[C@H](CC(=O)O)NC(=O)[C@H](CCCNC(=N)N)NC(=O)[C@H](Cc1c[nH]cn1)NC(=O)[C@H](CO)NC(=O)[C@H](Cc1c[nH]cn1)NC(=O)[C@H](CCSC)NC(=O)[C@H](CC(=O)O)NC(=O)CNC(=O)[C@H](CCCNC(=N)N)NC(=O)[C@H](CC(=O)O)NC(=O)CNC(=O)[C@@H](N)CCCNC(=N)N)C(C)C)C(C)C)C(N)=O` the elimination half-life was 7.8 min (cynomolgus monkey; 15 mg/kg).
`CN[C@H](CC(C)C)C(=O)N[C@H]1C(=O)N[C@@H](CC(N)=O)C(=O)N[C@H]2C(=O)N[C@H]3C(=O)N[C@H](C(=O)N[C@H](C(=O)NCCCNC(=N)N)c4cc(O)cc(O)c4-c4cc3ccc4O)[C@H](O)c3ccc(c(Cl)c3)Oc3cc2cc(c3O[C@@H]2O[C@H](CO)[C@@H](O)[C@H](O)[C@H]2O[C@H]2C[C@](C)(NCc3ccc(-c4ccc(Cl)cc4)cc3)[C@H](O)[C@H](C)O2)Oc2ccc(cc2Cl)[C@H]1O` gave a clearance of 1.5 mL/min/kg (mouse; intravenous, 10 mg/kg).
For `CCCCCCCC(=O)OC[C@H](NC(=O)[C@H](CO)NC(=O)CN)C(=O)N[C@@H](Cc1ccccc1)C(=O)N[C@@H](CC(C)C)C(=O)N[C@@H](CO)C(=O)N1CCC[C@H]1C(=O)N[C@@H](CCC(=O)O)C(=O)N[C@@H](Cc1cnc[nH]1)C(=O)N[C@@H](CCC(N)=O)C(=O)N[C@@H](CCCNC(=N)N)C(=O)N[C@H](C(=O)N[C@@H](CCC(N)=O)C(=O)N[C@@H](CCC(N)=O)C(=O)N[C@@H](CCCNC(=N)N)C(=O)N[C@@H](CCCCN)C(=O)N[C@@H](CCC(=O)O)C(=O)N[C@@H](CO)C(=O)N[C@@H](CCCCN)C(=O)N[C@@H](CCCCN)C(=O)N1CCC[C@H]1C(=O)N1CCC[C@H]1C(=O)N[C@@H](C)C(=O)N[C@@H](CCCCN)C(=O)N[C@@H](CC(C)C)C(=O)N[C@@H](CCC(N)=O)C(=O)N1CCC[C@H]1C(=O)N[C@@H](CCCNC(=N)N)C(=O)O)C(C)C`, the half-life was 27 to 31 min (item: total ghrelin; intravenous bolus, 1 and 5 µg/kg).
`CSCC[C@H](NC(=O)[C@H](Cc1c[nH]c2ccccc12)NC(=O)[C@H](Cc1c[nH]c2ccccc12)NC(=O)[C@H](CCC(=O)O)NC(=O)[C@@H]1CCCN1C(=O)[C@H](CCCNC(=N)N)NC(=O)CNC(=O)[C@@H](N)C(C)C)C(=O)N[C@@H](CC(=O)O)C(=O)N[C@@H](Cc1ccc(O)cc1)C(=O)N[C@@H](CCC(N)=O)C(=O)N[C@@H](CCCCN)C(=O)N[C@@H](CCCNC(=N)N)C(=O)N[C@@H](Cc1ccc(O)cc1)C(=O)NCC(=O)O` — result for “itch threshold concentration”: greater than 1 mM (human, hairy skin; intracutaneous).
For `O=C(O)CCC(NP(=O)(O)OCCC[C@@H](NC(=O)CCC(NC(=O)CCCCCNC(=O)c1ccc([18F])cc1)C(=O)O)C(=O)O)C(=O)O` (stereo partly shown), the tumour retention was 2.35 %ID/g (mouse, CWR22Rv1 xenograft, tumour; 4 h).
Under “plasma level ratio”, `CCCCCc1cc(O)c2c(c1)OC(C)(C)C1CCC(C(=O)OC3OC(C(=O)O)C(O)C(O)C3O)=CC21` (stereo not shown) is recorded as roughly 7.6 fold (human, plasma; inhalation of cannabis; baseline: THC).
`CC[C@H](C)C(=O)N1CCC(NC(=O)Nc2ccc(OC(F)(F)F)c(F)c2)CC1` gave an oral bioavailability of roughly 60% (dog; oral).
The metabolic ratio of `Cc1ccc(Sc2cc(O)ccc2N2CCNCC2)c(C)c1` is reported as no more than 0.04 (plasma; vortioxetine; baseline: metabolite AUC over vortioxetine AUC).
`NC(=O)N[C@H]1CC[C@H](CCN2CCN(c3cccc(Cl)c3Cl)CC2)CC1` has a half-life of 2 to 3 weeks (human, plasma).
Under toxicity, `COc1cc(C)c(S(=O)(=O)NC(=N)NCCC[C@@H](NC(=O)[C@@H](CCC(N)=O)NC(=O)[C@@H](Cc2c[nH]c3ccccc23)NC(=O)[C@@H](CCCCN)NC(=O)[C@@H](Cc2ccccc2)NC(=O)[C@H](N)Cc2ccccc2)C(=O)N[C@H](CCCNC(=N)N)C(=O)N[C@H](CCCNC(=N)N)C(N)=O)c(C)c1C` is recorded as “not toxic” (mouse; oral, NG).
With `Nc1ncnc2c1ncn2C1CC(O)C(COP(=O)(O)OP(=O)(O)C(Cl)P(=O)(O)O)O1` (mixture of isomers) the pKa4 was 9.5 (item: bisphosphonate leaving group; aqueous solution; measured experimentally).
With `COc1ccc(CCN2CCN(C/C=C/[125I])CC2)cc1OC` the logD was 2.25 ± 0.01 (pH 7.4).
For `[O-][N+]1=C(c2ccccc2)C2=NCCCN2c2ncccc21`, the logP was 0.311 (octanol/PBS).
`C[C@]12CCNC1Nc1ccc(OC(=O)Nc3ccccc3)cc12` (single isomer, unassigned; (+)) gave a Cmax of 3.8 ng/mL (human, plasma; 40 mg Posiphen).
Under “increase in AUC(0-tau)”, `C=C(C)[C@@H]1CCC(CO)=C[C@H]1c1c(O)cc(CCCCC)cc1O` is recorded as 22% (healthy volunteers; dose not given, steady state, with: valproate).
The NOAEL of `CC(C)[C@@H]1CC[C@@H](C)C[C@H]1C(=O)NCCc1ccccn1` is reported as 10 mg/kg/day (rat Sprague-Dawley; diet, 28 days).
Under locomotor activity, `CC(=O)N1CC2(CCN(C(=O)[C@@H](CCCCN)NC(=O)[C@@H](CC(C)C)NC(=O)[C@@H](Cc3ccccc3)NC(=O)[C@H](N)Cc3ccccc3)CC2)C1` is recorded as “no effect” (mouse; 0.4 mg/kg).

Repeated from above:
The NOAEL of `CC(C)[C@@H]1CC[C@@H](C)C[C@H]1C(=O)NCCc1ccccn1` is reported as 10 mg/kg/day (rat Sprague-Dawley; diet, 28 days).
Under locomotor activity, `CC(=O)N1CC2(CCN(C(=O)[C@@H](CCCCN)NC(=O)[C@@H](CC(C)C)NC(=O)[C@@H](Cc3ccccc3)NC(=O)[C@H](N)Cc3ccccc3)CC2)C1` is recorded as “no effect” (mouse; 0.4 mg/kg).
